# Experimental data of several laboratories.
# Every numbered part comes from another study and shows a few of its results, in no order. Values joined by “and” are separate records of one study, mostly repeats; a detail may differ.

# Sample 1
# Cell line: normal-adjacent epithelial organoid
# Read-out: cell viability
# Technique: CellTiter-Glo
# Species: human
# Sample: patient-derived organoid
# Tested at: 1 µM
# Relative to: DMSO
SMILES,viability
c1ccc2oc(-c3csc(C4CCN(Cc5nc6ncccc6[nH]5)CC4)n3)cc2c1,63.9%
C[C@H](NC(=O)Nc1cc2[nH]ncc2c(CO)n1)c1ccccn1,122% and 94.7%
CC(=O)Nc1c(C(C)=O)c(=O)n(C)c2nc(-c3ccc(Cl)cc3Cl)c(-c3ccc(Cl)cc3)cc12,79.7% and 86.4%
CC1=C(C#N)C(c2ccc3[nH]nc(C)c3c2)C(C#N)=C(C)N1,104% and 88%
CN1CCN(C(=O)C(C)(C)c2ccc(C(=O)Nc3cn4cc(-c5ccncc5)ccc4n3)cc2)CC1,51.7%
Cc1nc(N2CC[C@@H](O)C2)ncc1-c1cc(C(F)(F)F)cc2[nH]ncc12,81.3% and 98%
CN(C(=O)c1ccccc1)c1cc(N(C)c2ccc3c(c2)CCc2ccc(C(=O)NCCN4CCOCC4)cc2C3=O)ccc1F,98.6%
Cc1ccccc1Oc1cc(-n2c(=O)cc(C(F)(F)F)[nH]c2=O)c2ccccc2c1Cl,106%
O=C(NC[C@@H]1[C@H]2CN(C(=O)OCc3cc(C(F)(F)F)cc(C(F)(F)F)c3)C[C@@H]12)c1ccc2[nH]nnc2c1,99.7%
O=c1nc(-c2ccccn2)sc2ccccc12,108% and 96.2%
CCNC(=O)c1cc2c(N3CCOC[C@@H]3C)ccnc2[nH]1,111% and 101%
CN([C@@H]1CCc2c(CC(=O)O)c3ccccc3n2C1)S(=O)(=O)c1ccc(F)cc1,94% and 114%
CNCc1ccccc1-c1csc([C@@H](C)Nc2nc(C)nc3cc(OC)c(OC)cc23)c1,92.4%
Cc1c(N2CCCC2)nc2ccc(Br)cc2c1C(=O)NC[C@H](CCC(=O)O)c1ccccc1Cl,118%
CC(=O)N1CCC(c2ccc(C(=O)NC(=N)N)cc2C(F)(F)F)CC1,91.5% and 90.4%
CCOCCn1cc(C(=O)Nc2ccc(-n3nc(-c4cccnc4)cc3C(F)(F)F)cn2)ccc1=O,114%

# Sample 2
# Structure (SMILES): C[C@@H]1CN(c2ccc(-c3cc(C(=O)NCCOCCOCCOCCOCCOCCOCCOCCOCCOCCNC(=O)/C=C/c4[nH]cc(C(=O)N[C@@H](CC(N)=O)c5ccc(F)c(Cl)c5)c4-c4ccc(Cl)cc4F)ccc3F)cc2NC(=O)c2c[nH]c(=O)cc2C(F)(F)F)C[C@H](C)N1C
# Action: degrader
# Time: 24 h
# WDR5/DCAF1: WDR5/DCAF1 (Homo sapiens, UniProt P61964+Q9Y4B6)
# WDR5: WD repeat-containing protein 5 (WDR5, Homo sapiens, UniProt P61964)
target,assay,conditions,how to read,remaining protein level
WDR5/DCAF1,HiBiT luminescence,227 nM,,38.7% and 44.6% and 37.6% and 38.1%
WDR5,"Jess capillary immunoassay, item: WDR5 over vinculin",777 nM,relative to: DMSO,50.8% and 54% and 63.9%
WDR5,"Jess capillary immunoassay, item: WDR5 over vinculin",25.7 nM,relative to: DMSO,78.3% and 84.1% and 78.6%
WDR5,"Jess capillary immunoassay, item: WDR5 over vinculin",10000 nM,relative to: DMSO,64.7% and 39.9% and 48.2%
WDR5/DCAF1,HiBiT luminescence,10000 nM,,40.7% and 41.5% and 38.6% and 36.6%

# Sample 3
# Organism: Sarcocystis neurona
# Read-out: parasite growth
# Tested at: 10 µM
# Time: 96 h
# Notes: second screen
# Relative to: untreated
Compound,log2 fold change
Cc1ccsc1C(=CCCN1CCC[C@@H](C(=O)O)C1)c1sccc1C,0.39
CCOC(=O)[C@H](CCc1ccccc1)N[C@H]1CCc2ccccc2N(CC(=O)O)C1=O,0.16
CCOC(=O)[C@@]1(CCCCCCOc2ccc(Cl)cc2)CO1,0.19
CC1(C)S[C@@H]2[C@H](NC(=O)COc3ccccc3)C(=O)N2[C@H]1C(=O)O,0.15
COC(=O)Nc1nc2cc(C(=O)c3ccc(F)cc3)ccc2[nH]1,-0.11
CN(C)CCCN1c2ccccc2Sc2ccc(Cl)cc21,-0.97
NS(=O)(=O)c1cc(C(=O)O)c(NCc2ccco2)cc1Cl,0.2
Cc1nc2ccccn2c(=O)c1CCN1CCC(C(=O)c2ccc(F)cc2)CC1,-0.19
CSc1nc2cc(Cl)c(Oc3cccc(Cl)c3Cl)cc2[nH]1,0.13
CCCCC(=O)O[C@]1(C(=O)CO)CC[C@H]2[C@@H]3CCC4=CC(=O)CC[C@]4(C)[C@H]3[C@@H](O)C[C@@]21C,0.23
CSc1ccc2c(c1)N(CCC1CCCCN1C)c1ccccc1S2 (stereo not drawn),-0.8
Cc1c(O)c(=O)ccn1C,0.47
CC(C)[C@H](N)C(=O)OCCOCn1cnc2c(=O)[nH]c(N)nc21,0.31
CCCCN1CCCC1CNC(=O)c1cc(C#N)c2ccccc2c1OC (stereo not drawn),0.41

# Sample 4
# Cell line: A-375
# Tested at: 100 µM
# Time: 36 h
Structure (SMILES),viability
CN(C)[C@@H]1C(O)=C(C(N)=O)C(=O)[C@@]2(O)C(O)=C3C(=O)c4c(O)ccc(Cl)c4[C@@H](O)[C@H]3C[C@@H]12,103%
CC1=C(CC(=O)O)c2cc(F)ccc2/C1=C\c1ccc([S+](C)[O-])cc1 (stereo not drawn),92.3%
CC(C)[C@H](N)C(=O)OCCOCn1cnc2c(=O)[nH]c(N)nc21,119%
COCCCOc1cc(C[C@@H](C[C@H](N)[C@@H](O)C[C@H](C(=O)NCC(C)(C)C(N)=O)C(C)C)C(C)C)ccc1OC,92.9%
C#C[C@]1(O)CC[C@H]2[C@@H]3CCC4=CC(=O)CC[C@@H]4[C@H]3CC[C@@]21CC,77.1%
Cc1nccnc1N1CCCCC1,113%
NC(=O)c1cnccn1,104%
O=C(O)c1cc(-c2ccccc2)nc2ccccc12,109%
C[N+]1(C)[C@@H]2C[C@@H](OC(=O)C(O)(c3cccs3)c3cccs3)C[C@H]1[C@@H]1O[C@@H]12,112%
O=C(O)c1cc(=O)[nH]c(=O)[nH]1,110%
CCCS(=O)(=O)Nc1ccc(F)c(C(=O)c2c[nH]c3ncc(-c4ccc(Cl)cc4)cc23)c1F,3.38%
CN1CCN(C2=Nc3ccccc3Oc3ccc(Cl)cc32)CC1,-0.628%
O=C(O)c1ccccc1O,111%

# A few entries again (sample 4):
Structure (SMILES),viability
C#C[C@]1(O)CC[C@H]2[C@@H]3CCC4=CC(=O)CC[C@@H]4[C@H]3CC[C@@]21CC,77.1%
CC(C)[C@H](N)C(=O)OCCOCn1cnc2c(=O)[nH]c(N)nc21,119%
CN1CCN(C2=Nc3ccccc3Oc3ccc(Cl)cc32)CC1,-0.628%
C[N+]1(C)[C@@H]2C[C@@H](OC(=O)C(O)(c3cccs3)c3cccs3)C[C@H]1[C@@H]1O[C@@H]12,112%
O=C(O)c1cc(=O)[nH]c(=O)[nH]1,110%
NC(=O)c1cnccn1,104%
CN(C)[C@@H]1C(O)=C(C(N)=O)C(=O)[C@@]2(O)C(O)=C3C(=O)c4c(O)ccc(Cl)c4[C@@H](O)[C@H]3C[C@@H]12,103%
